Measured values from different studies.
Each numbered part is a random draw from the data of one study; scales do not carry over between parts.

Sample 1
Target: RNA binding protein fox-1 homolog 2, RRM domain, GST-SBP tag (RBFOX2, Homo sapiens, UniProt O43251-10, residues 100-194)
Method: RNA Bind-n-Seq
Form: RNA
Sample: in vitro
Tested at: 365 nM
Notes: natural RNA segment, single round, ends assumed
Baseline: no-protein control
Direction: higher = stronger binding
Quantity: RBNS enrichment (R)
Shared flanks, not repeated: GGGAGUUCUACAGUCCGACGAUC … UGGAAUUCUCGGGUGCCAA
Target sequence (chain): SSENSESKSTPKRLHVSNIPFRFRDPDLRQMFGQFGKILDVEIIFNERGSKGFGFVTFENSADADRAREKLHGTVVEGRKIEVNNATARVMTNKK
UAUUAAAUAACCAUUAGAAAAGCUCAGUAGACUUAUUUGAGAAAUUAAGCCUUGUGCAGGAUGAUGGAUUUGACUUACUAAUGUACUGUCACAGACAAAUAUGGGUAGUU: 0.325
GUGUAUUUCUUAAAAUACAACUUUGUGUUGUACUUUGAAAUAAAUGAUGCUUUUUUUCAAAAGCCUUAAUUGUUUUGUUUUGCUUUUUUACACUAGCUGCAUUUCCCACC: 0.694
AGAAAGUUCUAGAAAAUAGGAAAACGAAAAAUUUCAUUGAGAUGAGUAGUGCAUUUAAUUAUUUUUUAAAAAACUUUUUAAGUACUUGAAUUUUAUAUCAGGAAAACAAA: 0.718
UAAGCUUCAAAAUUAAUCAUUUAAAGUGUUUCUUUAAGAGAGCCAUGUUAGAGGCUCACACUUUAGCUUGAAAGGAGUUGAUGAAUUAAUUUUUUAAAGGGAACUUUUUA: 1.13
GAGAGAGUGGAGAGAGCAGUAAGGAGGCCACUGGAAGGAGCCAGACACAGAUUCUGGUUCAUUCAUUCAUUCAUUCCUUAGACAUUUUCGGUUUUACAAAGGAAGAACAG: 0.575
GAACUGCCAGCAGGGUUGCUUAGGAAAGGAAAUGGACCUUCUCUUCUCUUCUCUUCUUUGAGACAGGGUUUCACUCACUUUGUAACCCUAGCUGGCCUGGAAUUCACUAU: 0.273
UGGAACUGAAACUACAACCAAUGUGCUCCGCUGGGCAAUUCUUUUCAUGGCCCUUUAUCCUAAUAUUCAAGGACAAGUUCAUAAAGAGAUUGAUUUAAUUGUGGGCCACA: 0.391
CCAAGAUCUCAAACUAGGGCUUCCGUCUGUGAUGAGGACGCCUCUGAAGAAAUCUCAAGCUCCCAAUUUUGGUUGCACUUUACGAACAUGCUCACUUCGUUAGCAUUUCU: 0.552

Sample 2
Target: RING finger protein unkempt homolog, zinc fingers 1-6, GST-SBP tag (UNK, Homo sapiens, UniProt Q9C0B0, residues 30-357)
Chain of UniProt Q9C0B0 (30-357, looked up): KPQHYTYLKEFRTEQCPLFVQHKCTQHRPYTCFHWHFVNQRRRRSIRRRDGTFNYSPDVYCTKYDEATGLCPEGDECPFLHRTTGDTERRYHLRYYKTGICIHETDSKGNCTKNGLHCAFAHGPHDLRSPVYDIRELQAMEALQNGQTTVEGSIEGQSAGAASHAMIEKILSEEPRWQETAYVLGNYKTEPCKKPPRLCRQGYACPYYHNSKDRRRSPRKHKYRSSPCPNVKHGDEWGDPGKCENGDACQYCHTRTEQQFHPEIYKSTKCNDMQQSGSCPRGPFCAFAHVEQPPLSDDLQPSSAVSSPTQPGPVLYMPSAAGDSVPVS
Method: RNA Bind-n-Seq
Form: RNA
Sample: in vitro
Tested at: not given
Notes: RNA with constant flanks, human and mouse sites, ends assumed
Baseline: input RNA pool
Direction: higher = stronger binding
Quantity: bound/input enrichment
Shared flanks, not repeated: GGGAGUUCUACAGUCCGACGAUC … CAACAGAGGAUUGAGCAUCA
CAGUGGGACGGGGAGCAAAGCCCCAGAGGGGAGCGAAACAGGUGGAAGUACGAGGAAUUUUUAGAUCAUCCAGGCCAUAUCCACAGUAGUCCUUGUCAUGAAAGGCCCAACAAUGUCUCU: 0.292 ratio
AGAGCCCCGCGCCCGCUGUAAUUAUUUUCUAUUUUUGUAAACUUGUUGCUUUUUGAUAUGAUUUUCUUGCCUGAGUGUUGGCCGGAGGGACUGCUGGCCCGGCCUCCCUUCCGUCCAGGC: 3.5 ratio
AUGUCACAGUGUUAGCACCCUGCAUGGAUGUGGUCAAAAUAUCAUUCAAGUUGUACUUCCUAGUUUUUAUCAUCAUACUACUAUGUCAUAUGAUUUUCAGACUAAUUUAACAUGAGAAAU: 0.699 ratio
GCCACAGAUCGGAUCUGAUCUCUUUGUGGAUUACAUUUUCAGUAAAAUGUAUGGAUCUAUCUUUUCCUUGUUCUUAUAUCUAGAUCAUGAGACUUGACUGAGGCUGUUUCCUUAUCCUCC: 0.226 ratio
CUAAUCGCCUCACAAAAAUUCACAGACAAACGCAUUGGCUAUUUAGGAGCAAUGCUAUUAUUAGAUGAAAGACAAGAUGUGCAUCUUCUCAUGACCAACUGUAUCAAGAAUGAUCUUAAU: 9.56 ratio
UUUCUCACCGUGUACAUCAAAAACAUCUUUCUCAAUCAAGUCUUGGCUGAGAUCAACAAGGAGAUUGAAGGAGUCACUAAAACAUCUGACCCUUUGAAGAUUCUGGCCAACGCAGACACC: 0.165 ratio
GGGAAGAAUGGAAAGCAGGGCUUCCCAGACAGAGAAAGCCCAGUUUCUGACCUGACUUCCACUGGUCUUUACCAAGACAAACAGGAAGAGAAAAGCACGGGCUUCAUACCCAUAAAGGAA: 0.174 ratio
UACUGUACCUCCACCCUGCGCCACUUCUUGCCUCUACUGGAAAGAAGUCAAGGAGAAGAUAUAGAAGACGACCACAGGGCAGAGCUGUUGAAGCAGCUGGGGGACUACAGGUUCUCUGGA: 0.122 ratio

Sample 3
Target: Sal-like protein 4, full length isoform B (SALL4, Homo sapiens, UniProt Q9UJQ4-2, residues 1-616)
Method: universal PBM
Form: double-stranded DNA, one strand shown
Sample: in vitro
Tested at: not given
Notes: 8-mer, flanks averaged, mean of replicates
Direction: higher = stronger binding
Quantity: E-score
ACCCGTTG: -0.332
AAGAGGAT: 0.0466
CGAGGAGA: -0.234
CCGCAGTC: -0.269
GCCGCAGA: -0.237
CTACGGCC: -0.339
ATGCCGCC: -0.262
GACTCGCC: -0.33
GCATGCGC: -0.148
CCGACTTC: -0.303
ATATGCTC: 0.204
ACGAATGG: -0.0444
AAGCGGGT: -0.262
CGACAAAG: 0.142
GACTGTGC: -0.121
CGGTCCAC: -0.331
AACGCAAG: -0.0338
CAGGGATG: -0.0976
CGCCGCGA: -0.195
CGTTGAAA: -0.00216
GTTTGTAA: 0.135
CATTGTCA: 0.0292
AATCTACA: 0.175
TCTGGTCA: -0.0754
ATTTCATG: 0.16

Sample 4
Target: Centromere-binding protein 1, full length, N-terminal tag (CBF1, Saccharomyces cerevisiae, UniProt P17106, residues 1-351)
Chain of UniProt P17106 (whole entry, looked up): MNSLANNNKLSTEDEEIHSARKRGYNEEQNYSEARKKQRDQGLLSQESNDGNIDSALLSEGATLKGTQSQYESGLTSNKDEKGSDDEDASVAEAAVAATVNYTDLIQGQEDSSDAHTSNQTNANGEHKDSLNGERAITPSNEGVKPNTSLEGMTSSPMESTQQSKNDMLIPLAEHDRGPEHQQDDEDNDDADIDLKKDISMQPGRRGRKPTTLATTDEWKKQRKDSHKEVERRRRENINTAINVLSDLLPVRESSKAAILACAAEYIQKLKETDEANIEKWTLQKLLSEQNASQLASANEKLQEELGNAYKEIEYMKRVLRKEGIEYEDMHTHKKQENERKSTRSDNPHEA
Method: protein-binding microarray
Form: double-stranded DNA, one strand shown
Sample: in vitro
Tested at: 0.8 µM
Notes: whole 60-bp probe, no competitor
Direction: higher = stronger binding
Quantity: fluorescence intensity
Shared flanks, not repeated: … GTCTTGATTCGCTTGACGCTGCTG
GAATGAAGGCATCGTGACGTGATGATATAGGTGTAG: 1370 a.u.
GAACTTTTTACACCGCATGTGATAATATACTAGTAG: 1610 a.u.
CTAATGTATTACTATCACGTGGGTGGGGAAGACTTC: 10000 a.u.
GAAGTAATTAATGGTGACATGACATGTTATAGCTAG: 608 a.u.
GAAGCGCAAATCGTTTTCATGACGGAGTATTTATAG: 519 a.u.
GAACGGTTACAACGTCACGTCTTTTTCTGTTTATAG: 683 a.u.
CTAGGTTTCCTGCACCACCAGCCCCCATATGCTTTC: 487 a.u.
CCTAACTACTATAATAACGTGATATAGCTTCGTACA: 1410 a.u.
CTACTTCGACATGATCACGTAAAACAACAACCATTC: 725 a.u.
GAAACAGGTAAATGCCACACCATTAGGGAATATTAG: 531 a.u.
GAAATACTGCGCTATCTCGTGCCCTCGTCTCTTTAG: 606 a.u.
CTAGCATCATGACTATTCGTGGTAGTCACGCATTTC: 734 a.u.
CCTAACTACTATACTCAGGTGATATAGCTTCGTACA: 794 a.u.
CTAAGCTCTGTGGTTCACGTTCAATGTAGTGTTTTC: 529 a.u.
GAAATGCATAAGCATCACCTTGATCCATTTGCCTAG: 511 a.u.
CTAGATTCCTATGTCCTCGTGGAGAACTTTTAGTTC: 539 a.u.
CTACTGGGAAATGCCAACGTGGTCAGACATCAATTC: 716 a.u.
CTATTGTTTATATATCATCTGATCCATTAGCTGTTC: 1390 a.u.
GAAAGGTCATGATGAAACGTGCTTGGCAATATATAG: 694 a.u.

Excerpt of the above (sample 3):
ACCCGTTG: -0.332
AACGCAAG: -0.0338
CGACAAAG: 0.142
CAGGGATG: -0.0976
AAGAGGAT: 0.0466
CATTGTCA: 0.0292
